Published values from different studies.
Compare with care: the assays were run in different laboratories. ± gives the spread as reported.
CHRM2: Muscarinic acetylcholine receptor M2 (CHRM2, Homo sapiens, UniProt P08172)
Chain of UniProt P08172 (whole entry, looked up): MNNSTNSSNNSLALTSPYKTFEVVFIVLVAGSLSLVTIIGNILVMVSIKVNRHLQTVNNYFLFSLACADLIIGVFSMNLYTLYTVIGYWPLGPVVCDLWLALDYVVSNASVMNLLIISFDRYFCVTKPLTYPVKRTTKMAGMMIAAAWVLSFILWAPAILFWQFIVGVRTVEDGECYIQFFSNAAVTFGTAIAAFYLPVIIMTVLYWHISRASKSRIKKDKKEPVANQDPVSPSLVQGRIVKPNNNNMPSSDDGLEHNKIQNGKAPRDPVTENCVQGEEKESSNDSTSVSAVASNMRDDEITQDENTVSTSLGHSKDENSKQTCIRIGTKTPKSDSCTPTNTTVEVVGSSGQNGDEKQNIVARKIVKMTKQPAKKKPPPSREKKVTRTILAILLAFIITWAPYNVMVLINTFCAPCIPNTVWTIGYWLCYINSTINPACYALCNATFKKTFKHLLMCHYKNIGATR
MYC: Myc proto-oncogene protein (MYC, Homo sapiens, UniProt P01106)
Chain of UniProt P01106 (whole entry, looked up): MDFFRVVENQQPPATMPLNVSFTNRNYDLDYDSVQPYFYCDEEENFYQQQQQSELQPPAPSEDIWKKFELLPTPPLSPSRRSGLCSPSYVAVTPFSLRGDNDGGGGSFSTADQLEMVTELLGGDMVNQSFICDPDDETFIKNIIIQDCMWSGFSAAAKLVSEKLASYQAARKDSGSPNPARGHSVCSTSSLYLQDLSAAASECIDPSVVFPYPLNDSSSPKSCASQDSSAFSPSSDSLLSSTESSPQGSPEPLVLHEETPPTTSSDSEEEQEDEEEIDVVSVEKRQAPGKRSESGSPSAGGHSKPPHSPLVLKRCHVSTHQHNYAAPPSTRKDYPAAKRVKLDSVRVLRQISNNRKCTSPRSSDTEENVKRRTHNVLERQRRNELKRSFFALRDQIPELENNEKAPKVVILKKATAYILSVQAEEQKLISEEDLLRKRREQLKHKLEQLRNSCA
Chain of UniProt Q96SW2 (whole entry, looked up): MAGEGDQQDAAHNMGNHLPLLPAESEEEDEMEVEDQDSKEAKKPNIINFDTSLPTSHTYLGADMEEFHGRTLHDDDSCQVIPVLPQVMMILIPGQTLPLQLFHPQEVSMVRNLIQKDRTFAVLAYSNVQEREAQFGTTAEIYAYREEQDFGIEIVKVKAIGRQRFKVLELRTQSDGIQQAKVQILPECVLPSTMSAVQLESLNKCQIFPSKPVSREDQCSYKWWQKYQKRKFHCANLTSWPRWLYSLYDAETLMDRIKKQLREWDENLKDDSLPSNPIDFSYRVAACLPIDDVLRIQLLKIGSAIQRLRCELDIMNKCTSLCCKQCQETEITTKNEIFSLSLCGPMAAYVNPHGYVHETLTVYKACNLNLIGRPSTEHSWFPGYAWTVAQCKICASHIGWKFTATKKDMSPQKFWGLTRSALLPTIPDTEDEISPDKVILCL
Chain of UniProt Q9HC29 (whole entry, looked up): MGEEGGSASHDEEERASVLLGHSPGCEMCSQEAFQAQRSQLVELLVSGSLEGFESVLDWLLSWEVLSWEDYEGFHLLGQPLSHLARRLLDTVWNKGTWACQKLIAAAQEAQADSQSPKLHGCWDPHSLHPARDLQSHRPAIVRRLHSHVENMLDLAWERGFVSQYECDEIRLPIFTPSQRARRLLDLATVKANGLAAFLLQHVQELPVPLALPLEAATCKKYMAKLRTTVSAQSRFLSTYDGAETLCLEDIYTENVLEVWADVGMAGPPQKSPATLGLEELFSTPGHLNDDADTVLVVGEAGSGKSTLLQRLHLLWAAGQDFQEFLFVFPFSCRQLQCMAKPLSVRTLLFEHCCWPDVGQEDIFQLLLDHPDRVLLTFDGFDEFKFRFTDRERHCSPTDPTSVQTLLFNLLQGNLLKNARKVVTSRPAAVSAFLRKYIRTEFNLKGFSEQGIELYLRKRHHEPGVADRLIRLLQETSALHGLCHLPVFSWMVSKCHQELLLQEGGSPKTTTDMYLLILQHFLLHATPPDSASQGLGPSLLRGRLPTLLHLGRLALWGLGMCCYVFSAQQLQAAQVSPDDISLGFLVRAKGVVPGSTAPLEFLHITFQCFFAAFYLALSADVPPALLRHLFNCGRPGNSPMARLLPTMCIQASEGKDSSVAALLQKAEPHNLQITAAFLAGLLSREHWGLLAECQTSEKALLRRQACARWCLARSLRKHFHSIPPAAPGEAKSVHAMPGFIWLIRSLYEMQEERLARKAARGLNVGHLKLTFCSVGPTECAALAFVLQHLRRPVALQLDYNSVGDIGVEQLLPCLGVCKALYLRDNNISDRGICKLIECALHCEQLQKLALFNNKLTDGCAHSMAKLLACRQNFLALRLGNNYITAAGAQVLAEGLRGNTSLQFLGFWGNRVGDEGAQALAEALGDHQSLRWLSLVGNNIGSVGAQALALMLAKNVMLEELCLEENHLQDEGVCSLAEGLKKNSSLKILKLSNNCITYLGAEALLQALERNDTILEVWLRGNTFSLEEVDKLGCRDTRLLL
Chain of UniProt P16050 (whole entry, looked up): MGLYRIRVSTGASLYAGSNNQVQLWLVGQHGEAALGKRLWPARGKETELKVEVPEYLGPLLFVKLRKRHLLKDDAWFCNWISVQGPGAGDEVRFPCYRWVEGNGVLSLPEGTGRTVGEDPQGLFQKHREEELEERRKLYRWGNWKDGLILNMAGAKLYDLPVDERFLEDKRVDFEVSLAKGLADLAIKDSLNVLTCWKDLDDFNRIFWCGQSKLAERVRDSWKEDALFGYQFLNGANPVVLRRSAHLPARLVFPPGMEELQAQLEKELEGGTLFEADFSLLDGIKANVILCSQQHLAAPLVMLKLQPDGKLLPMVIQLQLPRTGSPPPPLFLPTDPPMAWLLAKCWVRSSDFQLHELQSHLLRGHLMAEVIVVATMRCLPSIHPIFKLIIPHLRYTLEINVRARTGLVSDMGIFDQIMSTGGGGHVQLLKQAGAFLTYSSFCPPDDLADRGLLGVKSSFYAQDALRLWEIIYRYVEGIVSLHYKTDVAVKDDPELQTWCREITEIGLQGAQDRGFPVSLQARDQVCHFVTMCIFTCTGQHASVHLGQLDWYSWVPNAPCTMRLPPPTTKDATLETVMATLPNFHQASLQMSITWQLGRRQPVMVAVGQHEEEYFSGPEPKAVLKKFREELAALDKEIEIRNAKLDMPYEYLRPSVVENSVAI
Chain of UniProt P18206 (whole entry, looked up): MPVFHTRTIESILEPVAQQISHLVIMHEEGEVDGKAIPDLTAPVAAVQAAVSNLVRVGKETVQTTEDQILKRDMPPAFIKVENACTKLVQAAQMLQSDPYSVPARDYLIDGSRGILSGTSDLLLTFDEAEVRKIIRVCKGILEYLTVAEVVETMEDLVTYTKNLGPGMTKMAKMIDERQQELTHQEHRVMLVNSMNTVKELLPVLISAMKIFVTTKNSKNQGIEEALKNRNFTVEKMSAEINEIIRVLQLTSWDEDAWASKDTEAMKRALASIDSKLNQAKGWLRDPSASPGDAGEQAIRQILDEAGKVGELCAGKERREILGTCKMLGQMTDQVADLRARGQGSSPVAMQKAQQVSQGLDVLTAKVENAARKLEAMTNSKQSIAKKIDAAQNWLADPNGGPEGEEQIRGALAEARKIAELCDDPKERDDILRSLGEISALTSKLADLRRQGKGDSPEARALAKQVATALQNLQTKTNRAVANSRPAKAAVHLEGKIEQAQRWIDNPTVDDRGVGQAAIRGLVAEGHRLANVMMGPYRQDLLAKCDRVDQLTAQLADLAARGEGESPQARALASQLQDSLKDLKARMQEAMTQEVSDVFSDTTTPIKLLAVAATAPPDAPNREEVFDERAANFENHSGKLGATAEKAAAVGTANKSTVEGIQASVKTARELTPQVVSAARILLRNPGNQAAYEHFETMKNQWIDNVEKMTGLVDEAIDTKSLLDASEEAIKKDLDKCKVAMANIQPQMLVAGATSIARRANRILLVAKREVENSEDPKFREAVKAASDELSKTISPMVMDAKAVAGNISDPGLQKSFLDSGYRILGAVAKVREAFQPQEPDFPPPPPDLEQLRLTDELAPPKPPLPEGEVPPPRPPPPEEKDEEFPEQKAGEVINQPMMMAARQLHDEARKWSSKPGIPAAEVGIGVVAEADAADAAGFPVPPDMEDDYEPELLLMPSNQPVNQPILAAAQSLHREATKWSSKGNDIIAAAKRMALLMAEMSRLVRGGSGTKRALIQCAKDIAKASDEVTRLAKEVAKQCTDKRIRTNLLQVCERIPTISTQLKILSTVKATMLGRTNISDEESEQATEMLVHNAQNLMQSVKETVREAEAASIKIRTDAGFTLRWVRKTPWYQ

SMILES	target	test	test system	conditions	quantity	value
COC(=O)CC[C@H](NC(=O)[C@H](C)NC(=O)[C@@H](C)O[C@H]1[C@H](O)[C@@H](CN)OC(O)[C@@H]1NC(C)=O)C(N)=O (stereo partly drawn)	NOD2 (Homo sapiens, UniProt Q9HC29)	binding		pH 6.5	Kd	0.002 to 0.01 µM
CCCCOc1ccc(C(=O)OCCN2CC=CCC2)cc1	CHRM2	inositol phosphate accumulation, antagonist, Schild analysis	CHO co-expressing G15	added: carbachol	Kb	11.7 µM
COc1ccc(CCCN[C@@H]2CCC[C@H]2CN[C@@H]2CCC[C@H]2CNCCCCN[C@H]2CCC[C@@H]2CN)cc1	KDM1A (Homo sapiens, UniProt O60341)	enzyme activity, inhibitor			Ki	2.2 µM
Cc1ccc(-n2nnnc2[S+]([O-])Cc2c(F)cccc2Cl)cc1Cl (stereo not drawn)	MYC	degrader, western blot	Ramos	8 h	DC50	~5 µM
CCC(=O)NCc1cc(C(=O)NCCN2CCC(N3CCC(n4c(=O)[nH]c5ccccc54)CC3)CC2)cc(C(=O)NCCN2CCN(CCCCC3CCN(CC(=O)N4c5ccccc5NC(=O)c5ccccc54)CC3)CC2)c1	CHRM2	inositol phosphate, antagonist			Kb	0.0117 µM
CN(C)CCNC(=O)c1cccc2c(NCCCCc3c(N)nc(N)nc3N)c3ccccc3nc12	RNA with G–G mismatch	binding, ITC		25 °C, 2	Kd	7690 ± 280 µM
CCCC(NC(=O)C(C#N)=Cc1nc(Cl)ccc1Cl)c1ccc(OCCN2CCOCC2)cc1 (stereo not drawn)	MYC	degrader, western blot	Ramos	8 h	DC50	~5 µM
CN1CCN(CC(=O)N2N=C3/C(=C/c4ccccc4)CCCC3C2c2ccccc2)CC1 (mixture of isomers)	ALOX15 (Homo sapiens, UniProt P16050)	enzyme activity, activator			AC50	> 100 µM
CN1CCC=C(c2nsnc2OCCCN2CCN(CCCCC3CCN(CC(=O)N4c5ccccc5NC(=O)c5ccccc54)CC3)CC2)C1	CHRM2	inositol phosphate, antagonist			Kb	0.0214 µM
Cc1ncsc1-c1ccc(C2(NC(=O)C3CC(O)CN3C(=O)C(NC(=O)c3ccc(COc4c(-c5c(C)c(F)cc6[nH]ncc56)c(C5CC5)cc5c(N6CC7CC6CN7)nc(OC6CCOCC6)nc45)cc3)C(C)(C)C)CC2)cc1 (stereo not drawn)	GTPase KRas (KRAS, Homo sapiens, UniProt P01116, G12D)	degrader, In-Cell ELISA	AsPC-1	24 h	DC50	0.682 µM
O=C1CCC(c2ccc3c(c2)CN(S(=O)(=O)c2ccc(C4CCCCC4)cc2)C3)C(=O)N1 (stereo not drawn)	VCL/CRBN, with vinculin (Homo sapiens, UniProt P18206+Q96SW2)	degrader	human cells		DC50	0.255 µM
CCCCOc1ccc(C(=O)OCC[N+]2(C)CC=CCC2)cc1 (stereo not drawn)	CHRM2	inositol phosphate accumulation, antagonist, Schild analysis	CHO co-expressing G15	added: carbachol	Kb	1.55 µM

Repeated from above:
SMILES	target	test	test system	conditions	quantity	value
Cc1ncsc1-c1ccc(C2(NC(=O)C3CC(O)CN3C(=O)C(NC(=O)c3ccc(COc4c(-c5c(C)c(F)cc6[nH]ncc56)c(C5CC5)cc5c(N6CC7CC6CN7)nc(OC6CCOCC6)nc45)cc3)C(C)(C)C)CC2)cc1 (stereo not drawn)	GTPase KRas (KRAS, Homo sapiens, UniProt P01116, G12D)	degrader, In-Cell ELISA	AsPC-1	24 h	DC50	0.682 µM
